Measurements of several laboratories.
Each numbered part is a random draw from the data of one study; scales do not carry over between parts.

Block 1
Target: Interferon regulatory factor 3, full length, phosphomimetic (IRF3, Homo sapiens, UniProt Q14653, residues 1-427, S386D/S396D/S398D/S402D/T404D/S405D)
Technique: protein-binding microarray
Molecule type: double-stranded DNA, one strand shown
Sample: in vitro
Concentration: 2540 nM top
Notes: 60-bp whole probe
Together with: salmon DNA 0.4 mg/ml
Relative to: random background probes
Direction: higher = stronger binding
All sequences stand within: GCCTAGCAC … GTCTTGATTCGCTTGACGCTGCTG
Target sequence (chain): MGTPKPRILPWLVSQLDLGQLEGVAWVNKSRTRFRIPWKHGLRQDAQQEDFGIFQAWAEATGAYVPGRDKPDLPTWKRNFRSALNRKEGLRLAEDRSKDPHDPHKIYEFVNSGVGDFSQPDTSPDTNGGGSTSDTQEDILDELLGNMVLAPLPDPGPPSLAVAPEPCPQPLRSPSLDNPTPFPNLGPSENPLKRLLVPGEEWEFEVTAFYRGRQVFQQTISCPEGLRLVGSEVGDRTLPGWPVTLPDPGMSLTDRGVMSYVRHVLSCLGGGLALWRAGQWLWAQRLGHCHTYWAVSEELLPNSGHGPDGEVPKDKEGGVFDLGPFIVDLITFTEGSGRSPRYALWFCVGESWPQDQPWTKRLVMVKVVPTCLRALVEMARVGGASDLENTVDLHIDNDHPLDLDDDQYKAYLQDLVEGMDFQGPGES
Sequence | fitted relative affinity [z-score]
GACGAACTGGGGAATCGAGACGTGCTA | -0.385
TTAGGTCTCCTTTTCCTTTGGTGCTAG | 4.49
TCACATTTTGGTTTTCCACTGTGCTAG | 1.81
TTAGGTTGCGACTATCGGTTAGTGCTA | 0.437
AACGGACTGGGGTATCGGGACGTGCTA | -0.567

Block 2
Target: Ras GTPase-activating protein-binding protein 1, C-terminal RGG region (G3BP1, Homo sapiens, UniProt Q13283)
UniProt Q13283, sequence (whole entry, looked up): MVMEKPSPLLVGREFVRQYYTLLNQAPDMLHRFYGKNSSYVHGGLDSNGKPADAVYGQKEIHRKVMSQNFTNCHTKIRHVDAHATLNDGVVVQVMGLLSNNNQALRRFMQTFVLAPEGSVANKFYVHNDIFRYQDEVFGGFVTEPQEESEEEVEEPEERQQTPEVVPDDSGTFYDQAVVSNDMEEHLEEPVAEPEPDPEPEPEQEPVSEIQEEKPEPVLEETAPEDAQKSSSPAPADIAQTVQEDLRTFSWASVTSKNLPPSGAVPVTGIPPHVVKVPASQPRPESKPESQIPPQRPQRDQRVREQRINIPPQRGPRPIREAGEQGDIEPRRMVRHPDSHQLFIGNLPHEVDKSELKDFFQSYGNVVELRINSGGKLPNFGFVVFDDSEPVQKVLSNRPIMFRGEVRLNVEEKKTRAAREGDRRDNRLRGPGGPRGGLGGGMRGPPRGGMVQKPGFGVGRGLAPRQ
Technique: RNA Bind-n-Seq
Molecule type: RNA
Sample: in vitro
Concentration: 1 µM
Notes: whole 134-nt RNA, ends assumed
Together with: 150 mM KCl
Relative to: input library
Direction: higher = stronger binding
All sequences stand within: GGGAGUUCUACAGUCCGACGAUC … UGGAAUUCUCGGGUGUCAAGG
Sequence | log2 enrichment
UCCUGUGCUACACAUCGUAUGUACCGAAUCGGGGUUUUUUUGGGGUGGGGAAAAAGGGGAAAGUAUUAUGUUACGCCGUUCGGAUCUGCA | 1.29
UGGGAGGUGGAUUUUGUUUAUUUUUUUAGCUCAUUUCCAGGGGUGGGGAUUUUUUUUUAAUAUGUGUCAUGAAUAAAGUUGUUUUUGAAA | 2.68
UGGGAGCUGGAUUUUGUUUAUUUUUUUAGCUCAUUUCCAGGGGUGGGAAUUUUUUUUUAAUAUGUGUCAUGAAUAAAGUUGUUUUUGAAA | 3.09
ACCAUGCAGGUGGGCAUCUUUGGGAAGUGGGGCAAGGGGCGGAUAGGGAGGGGGGUAACACUUUGGGAACAGGUGGUCCCAGGUCGUUUC | 2.18
AAGUCCUGUGCUACACAUCGUAUGUACCGAAUCAAACCCCCAAAUUUAAACCCAAAAAAGUAUUAUGUUACGCCGUUCGGAUCUGCACUU | -0.967

Block 3
Target: Centromere-binding protein 1, full length, N-terminal tag (CBF1, Saccharomyces cerevisiae, UniProt P17106, residues 1-351)
UniProt P17106, sequence (whole entry, looked up): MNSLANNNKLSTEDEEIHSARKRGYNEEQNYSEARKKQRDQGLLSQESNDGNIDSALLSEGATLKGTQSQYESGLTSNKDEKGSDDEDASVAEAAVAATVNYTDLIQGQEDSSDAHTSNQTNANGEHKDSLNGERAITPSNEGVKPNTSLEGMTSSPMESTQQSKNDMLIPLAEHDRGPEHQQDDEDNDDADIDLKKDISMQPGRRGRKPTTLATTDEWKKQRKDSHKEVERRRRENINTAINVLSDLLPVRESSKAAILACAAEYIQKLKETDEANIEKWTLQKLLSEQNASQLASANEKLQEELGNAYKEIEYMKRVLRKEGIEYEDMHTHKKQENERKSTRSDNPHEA
Technique: protein-binding microarray
Molecule type: double-stranded DNA, one strand shown
Sample: in vitro
Concentration: 0.8 µM
Notes: whole 60-bp probe, no competitor
Direction: higher = stronger binding
All sequences stand within: … GTCTTGATTCGCTTGACGCTGCTG
Sequence | fluorescence intensity
CTAGAGCAACAAATACATGTGAGCTTAGAAAGATTC | 666 a.u.
TGTACGAAGCTATGAAACATCAGTATAGTAGTTAGG | 552 a.u.
CTAGGAAATCATCTGCACGTATGCTATATCGAATTC | 567 a.u.
TGTACGAAGCTATGTCATCAGTCTATAGTAGTTAGG | 535 a.u.
GAAATTACTTTACACCACCTTATAACCACAAACTAG | 600 a.u.
CTAGTCTCCGCCGTGTTGGTGATGCAGTTTTCTTTC | 518 a.u.
CTAAATCGTGGTCGGAACGTGCAATATATGAGATTC | 617 a.u.

Further values, each from its own experiment
Substance | target | test | test system | setting | scale | quantity | value
PhoQ, residues 284 288 289 292 302 303 TVTVVA | PhoP, residues 12 14 15 18 19 NQAHL (Escherichia coli, UniProt P23836) | Sort-seq, refers to: YFP reporter | E. coli | PhoQ-PhoP variant library, together with: 10 µM Mg2+ | relative to: high Mg2+ state, higher = stronger signaling | fold induction | 2.17

Excerpt of the above (block 2):
Sequence | log2 enrichment
UCCUGUGCUACACAUCGUAUGUACCGAAUCGGGGUUUUUUUGGGGUGGGGAAAAAGGGGAAAGUAUUAUGUUACGCCGUUCGGAUCUGCA | 1.29
UGGGAGGUGGAUUUUGUUUAUUUUUUUAGCUCAUUUCCAGGGGUGGGGAUUUUUUUUUAAUAUGUGUCAUGAAUAAAGUUGUUUUUGAAA | 2.68
UGGGAGCUGGAUUUUGUUUAUUUUUUUAGCUCAUUUCCAGGGGUGGGAAUUUUUUUUUAAUAUGUGUCAUGAAUAAAGUUGUUUUUGAAA | 3.09
